Published values pooled from the literature.
A part holds a random share of what one study measured. Values joined by “and” are separate records of one study, mostly repeats; a detail may differ.
UniProt O95382, sequence (whole entry, looked up): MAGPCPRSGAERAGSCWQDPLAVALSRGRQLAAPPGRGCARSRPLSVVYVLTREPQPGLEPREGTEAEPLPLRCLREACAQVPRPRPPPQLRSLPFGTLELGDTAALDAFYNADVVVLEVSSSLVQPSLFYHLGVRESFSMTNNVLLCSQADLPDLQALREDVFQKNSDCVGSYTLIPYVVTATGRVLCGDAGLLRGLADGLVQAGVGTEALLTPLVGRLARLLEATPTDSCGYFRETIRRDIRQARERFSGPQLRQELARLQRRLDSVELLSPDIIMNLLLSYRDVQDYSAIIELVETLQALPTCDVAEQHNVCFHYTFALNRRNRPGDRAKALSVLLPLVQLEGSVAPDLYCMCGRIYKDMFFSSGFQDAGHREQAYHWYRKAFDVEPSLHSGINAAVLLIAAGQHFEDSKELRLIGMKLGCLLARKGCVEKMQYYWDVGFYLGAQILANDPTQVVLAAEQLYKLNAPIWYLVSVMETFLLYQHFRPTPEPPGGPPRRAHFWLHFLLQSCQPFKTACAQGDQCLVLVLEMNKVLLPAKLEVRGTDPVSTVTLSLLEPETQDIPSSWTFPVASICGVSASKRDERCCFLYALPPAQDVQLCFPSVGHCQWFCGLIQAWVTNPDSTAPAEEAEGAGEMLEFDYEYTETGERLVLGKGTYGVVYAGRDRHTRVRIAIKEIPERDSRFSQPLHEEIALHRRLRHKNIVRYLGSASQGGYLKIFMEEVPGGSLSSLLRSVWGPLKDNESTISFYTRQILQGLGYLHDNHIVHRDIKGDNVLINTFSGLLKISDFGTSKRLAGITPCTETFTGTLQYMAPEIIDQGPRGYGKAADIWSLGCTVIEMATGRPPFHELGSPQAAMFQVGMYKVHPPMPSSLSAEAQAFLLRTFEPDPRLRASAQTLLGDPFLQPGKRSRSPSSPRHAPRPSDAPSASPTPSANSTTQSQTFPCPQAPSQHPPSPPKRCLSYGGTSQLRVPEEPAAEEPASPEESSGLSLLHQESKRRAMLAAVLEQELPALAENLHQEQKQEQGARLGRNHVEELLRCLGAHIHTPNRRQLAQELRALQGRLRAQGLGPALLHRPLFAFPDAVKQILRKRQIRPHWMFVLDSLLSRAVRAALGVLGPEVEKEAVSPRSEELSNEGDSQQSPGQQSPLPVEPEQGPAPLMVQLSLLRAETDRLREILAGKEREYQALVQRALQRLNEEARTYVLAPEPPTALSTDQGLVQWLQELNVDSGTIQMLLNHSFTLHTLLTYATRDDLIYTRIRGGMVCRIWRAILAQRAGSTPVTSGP
UniProt O15111, sequence (whole entry, looked up): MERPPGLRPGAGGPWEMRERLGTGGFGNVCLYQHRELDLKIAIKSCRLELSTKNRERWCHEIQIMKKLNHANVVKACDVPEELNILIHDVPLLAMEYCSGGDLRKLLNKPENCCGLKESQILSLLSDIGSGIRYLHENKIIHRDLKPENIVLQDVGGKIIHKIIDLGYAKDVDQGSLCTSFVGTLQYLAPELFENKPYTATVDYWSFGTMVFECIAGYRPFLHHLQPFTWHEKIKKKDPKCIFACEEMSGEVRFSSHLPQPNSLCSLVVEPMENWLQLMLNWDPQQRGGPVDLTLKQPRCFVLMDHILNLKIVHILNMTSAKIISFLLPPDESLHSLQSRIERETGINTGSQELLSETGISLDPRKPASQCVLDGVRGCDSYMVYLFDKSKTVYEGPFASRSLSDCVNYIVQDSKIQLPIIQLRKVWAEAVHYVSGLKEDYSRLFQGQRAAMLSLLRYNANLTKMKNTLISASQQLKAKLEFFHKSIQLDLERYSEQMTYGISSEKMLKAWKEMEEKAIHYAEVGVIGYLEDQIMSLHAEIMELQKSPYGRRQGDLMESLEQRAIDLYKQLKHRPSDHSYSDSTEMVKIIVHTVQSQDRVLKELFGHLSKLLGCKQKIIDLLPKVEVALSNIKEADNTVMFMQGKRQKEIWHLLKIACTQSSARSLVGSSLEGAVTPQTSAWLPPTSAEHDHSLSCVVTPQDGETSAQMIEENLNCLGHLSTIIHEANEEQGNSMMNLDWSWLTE
UniProt Q6J9G0, sequence (whole entry, looked up): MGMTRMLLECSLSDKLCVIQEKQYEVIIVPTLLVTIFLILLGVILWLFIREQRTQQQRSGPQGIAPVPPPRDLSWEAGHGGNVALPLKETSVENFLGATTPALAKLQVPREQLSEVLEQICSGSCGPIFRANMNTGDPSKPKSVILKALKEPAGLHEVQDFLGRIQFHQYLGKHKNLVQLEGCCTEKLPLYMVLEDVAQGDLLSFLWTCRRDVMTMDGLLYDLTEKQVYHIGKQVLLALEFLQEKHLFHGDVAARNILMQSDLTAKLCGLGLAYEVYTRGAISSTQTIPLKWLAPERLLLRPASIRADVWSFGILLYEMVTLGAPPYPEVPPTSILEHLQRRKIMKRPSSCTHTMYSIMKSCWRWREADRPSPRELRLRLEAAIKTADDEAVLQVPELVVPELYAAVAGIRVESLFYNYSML
UniProt P35916, sequence (whole entry, unmodified, looked up): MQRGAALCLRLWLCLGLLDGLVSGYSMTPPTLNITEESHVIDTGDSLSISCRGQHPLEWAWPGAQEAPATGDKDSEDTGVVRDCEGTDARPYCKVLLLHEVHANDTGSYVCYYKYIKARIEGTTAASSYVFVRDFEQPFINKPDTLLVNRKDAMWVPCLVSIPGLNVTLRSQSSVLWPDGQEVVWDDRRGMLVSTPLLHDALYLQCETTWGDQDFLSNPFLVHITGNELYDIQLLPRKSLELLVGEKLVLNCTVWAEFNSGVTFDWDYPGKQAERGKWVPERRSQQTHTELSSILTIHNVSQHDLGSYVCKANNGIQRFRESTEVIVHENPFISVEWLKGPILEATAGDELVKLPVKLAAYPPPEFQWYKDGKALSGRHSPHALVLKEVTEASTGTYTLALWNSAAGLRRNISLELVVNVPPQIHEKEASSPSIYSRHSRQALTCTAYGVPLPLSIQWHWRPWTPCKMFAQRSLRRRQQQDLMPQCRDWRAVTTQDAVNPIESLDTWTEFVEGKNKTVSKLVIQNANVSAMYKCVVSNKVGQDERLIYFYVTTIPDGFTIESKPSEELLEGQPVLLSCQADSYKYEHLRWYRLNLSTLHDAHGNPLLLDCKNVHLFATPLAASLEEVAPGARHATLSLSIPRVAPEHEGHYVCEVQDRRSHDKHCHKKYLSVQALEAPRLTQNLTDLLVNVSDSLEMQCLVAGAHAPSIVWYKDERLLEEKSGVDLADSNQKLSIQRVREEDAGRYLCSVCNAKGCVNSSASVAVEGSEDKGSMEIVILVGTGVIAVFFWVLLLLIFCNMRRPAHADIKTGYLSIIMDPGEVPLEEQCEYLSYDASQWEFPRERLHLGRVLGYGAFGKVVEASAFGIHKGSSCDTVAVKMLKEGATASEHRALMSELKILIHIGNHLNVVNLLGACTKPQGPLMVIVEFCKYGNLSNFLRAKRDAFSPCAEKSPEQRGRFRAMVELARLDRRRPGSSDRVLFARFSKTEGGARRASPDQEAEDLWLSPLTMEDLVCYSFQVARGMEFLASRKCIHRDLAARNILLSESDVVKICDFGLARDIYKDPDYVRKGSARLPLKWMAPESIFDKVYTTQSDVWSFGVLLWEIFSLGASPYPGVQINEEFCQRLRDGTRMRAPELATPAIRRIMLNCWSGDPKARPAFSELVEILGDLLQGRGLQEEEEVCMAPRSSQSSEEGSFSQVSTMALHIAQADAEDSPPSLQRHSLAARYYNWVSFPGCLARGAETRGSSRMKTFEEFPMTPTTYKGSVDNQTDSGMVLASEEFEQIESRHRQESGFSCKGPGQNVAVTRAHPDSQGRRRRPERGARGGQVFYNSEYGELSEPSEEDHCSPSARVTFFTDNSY
UniProt P21802, sequence (whole entry, looked up): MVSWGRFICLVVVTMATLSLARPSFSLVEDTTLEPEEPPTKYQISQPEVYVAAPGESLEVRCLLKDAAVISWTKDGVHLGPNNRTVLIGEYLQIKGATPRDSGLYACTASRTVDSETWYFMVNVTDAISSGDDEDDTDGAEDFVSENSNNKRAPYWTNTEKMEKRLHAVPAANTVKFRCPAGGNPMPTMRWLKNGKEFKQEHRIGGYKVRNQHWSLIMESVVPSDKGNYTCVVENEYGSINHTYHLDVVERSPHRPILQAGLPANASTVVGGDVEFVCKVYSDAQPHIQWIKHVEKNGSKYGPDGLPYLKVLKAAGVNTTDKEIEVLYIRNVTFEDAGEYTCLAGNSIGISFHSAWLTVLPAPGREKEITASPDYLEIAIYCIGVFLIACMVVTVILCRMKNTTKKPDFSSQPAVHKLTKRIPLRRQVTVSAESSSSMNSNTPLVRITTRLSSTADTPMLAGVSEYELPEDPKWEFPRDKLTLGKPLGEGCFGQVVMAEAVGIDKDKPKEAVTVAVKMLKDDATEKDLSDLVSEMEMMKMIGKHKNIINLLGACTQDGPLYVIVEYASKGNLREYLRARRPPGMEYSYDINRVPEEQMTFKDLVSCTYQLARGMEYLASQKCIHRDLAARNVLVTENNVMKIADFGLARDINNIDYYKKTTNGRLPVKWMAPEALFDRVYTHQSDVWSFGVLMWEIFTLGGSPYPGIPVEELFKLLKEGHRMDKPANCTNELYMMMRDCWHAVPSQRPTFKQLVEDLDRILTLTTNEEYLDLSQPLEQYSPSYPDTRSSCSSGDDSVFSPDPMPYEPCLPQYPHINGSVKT
UniProt P19784, sequence (whole entry, looked up): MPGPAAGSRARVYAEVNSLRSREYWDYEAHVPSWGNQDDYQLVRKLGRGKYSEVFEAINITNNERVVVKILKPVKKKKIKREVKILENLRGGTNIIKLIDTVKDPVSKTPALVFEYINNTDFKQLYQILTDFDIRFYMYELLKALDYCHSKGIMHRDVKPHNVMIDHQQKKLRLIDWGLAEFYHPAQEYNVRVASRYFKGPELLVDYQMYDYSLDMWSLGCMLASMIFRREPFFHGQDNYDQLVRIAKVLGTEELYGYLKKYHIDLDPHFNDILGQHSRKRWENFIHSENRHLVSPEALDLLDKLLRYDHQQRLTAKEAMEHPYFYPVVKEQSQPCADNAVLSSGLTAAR

Series 1 — read-out: enzyme activity; mode: inhibitor; concentration: 0.5 µM; baseline: control; quantity: remaining activity
Target: Serine/threonine-protein kinase TBK1 (TBK1, Homo sapiens, UniProt Q9UHD2)
Construct (Q9UHD2 1-729): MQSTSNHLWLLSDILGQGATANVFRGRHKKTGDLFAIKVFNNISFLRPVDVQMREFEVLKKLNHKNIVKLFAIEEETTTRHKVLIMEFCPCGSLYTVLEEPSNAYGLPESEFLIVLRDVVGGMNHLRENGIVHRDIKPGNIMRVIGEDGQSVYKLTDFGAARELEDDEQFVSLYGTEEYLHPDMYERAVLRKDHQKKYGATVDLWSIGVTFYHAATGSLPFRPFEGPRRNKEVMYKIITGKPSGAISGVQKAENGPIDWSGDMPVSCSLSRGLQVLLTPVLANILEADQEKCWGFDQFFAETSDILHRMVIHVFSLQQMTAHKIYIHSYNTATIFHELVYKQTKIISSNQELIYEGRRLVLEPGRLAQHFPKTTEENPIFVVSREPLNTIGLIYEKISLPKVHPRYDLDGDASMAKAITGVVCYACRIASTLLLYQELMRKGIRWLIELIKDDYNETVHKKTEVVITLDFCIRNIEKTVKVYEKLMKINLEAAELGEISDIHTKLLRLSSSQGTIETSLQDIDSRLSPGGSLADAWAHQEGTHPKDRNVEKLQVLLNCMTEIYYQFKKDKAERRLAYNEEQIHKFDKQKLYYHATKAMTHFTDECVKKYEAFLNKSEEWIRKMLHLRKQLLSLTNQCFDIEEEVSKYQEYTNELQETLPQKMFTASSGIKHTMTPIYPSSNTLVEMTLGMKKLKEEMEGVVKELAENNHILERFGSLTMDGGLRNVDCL
CNC(=O)c1cc(Oc2ccc(NC(=O)Nc3ccc(Cl)c(C(F)(F)F)c3)cc2)ccn1: 98.6%
O=C(CCCc1ccc(-c2ccccc2F)cc1)Nc1ccc(O)cc1: 98.2%
O=c1c2ccccc2[nH]c(=S)n1CCN1CCC(=C(c2ccc(F)cc2)c2ccc(F)cc2)CC1: 104%
COc1ccc(OC)c2c(=S)c3ccccc3[nH]c12: 97.5%
COc1ccc(CNC(=O)Nc2ncc([N+](=O)[O-])s2)cc1: 104%
Nc1ncnc2n[nH]c(Nc3ccc(F)cc3)c12: 99.6%
N#CC(C#N)=C(N)/C(C#N)=C/c1ccc(O)cc1: 91.1%
CCOC(=O)c1c(C)[nH]c(/C=C2\C(=O)Nc3ccccc32)c1C: 70.5%
CC(C)[C@H](CO)Nc1nc(Nc2cc(N)cc(Cl)c2)c2ncn(C(C)C)c2n1: 86.6%
CO[C@H]1C[C@@H]2CC[C@@H](C)[C@@](O)(O2)C(=O)C(=O)N2CCCC[C@H]2C(=O)O[C@H]([C@H](C)C[C@@H]2CC[C@@H](O)[C@H](OC)C2)CC(=O)[C@H](C)/C=C(\C)[C@@H](O)[C@@H](OC)C(=O)[C@H](C)C[C@H](C)/C=C/C=C/C=C/1C: 94.7%
Nc1ccc2ncnc(NCCc3ccc(Oc4ccccc4)cc3)c2c1: 100%
COc1cc2nccc(Oc3ccc(NC(=S)NC(=O)c4ccccc4C)cc3)c2cc1OC: 103%
Cc1nc(-c2ccccc2)c(-c2ccncc2)o1: 88%
CN(C)c1ccc(C=C2C(=O)Nc3ccccc32)cc1: 98.4%
Cc1cccc(-c2[nH]c(C(C)(C)C)nc2-c2ccc3c(c2)OCO3)n1: 91.9%

Series 2 — read-out: cell-free assay; technique: competition with immobilised ligand; concentration: 1 µM; quantity: remaining binding
SMILES: CO[C@H]1CC[C@H](CNc2ccc(S(=O)(=O)NC(=O)c3ccc(N4CCN(CC5=C(c6ccc(Cl)cc6)CC(C)(C)CC5)CC4)cc3Oc3cnc4[nH]ccc4c3)cc2[N+](=O)[O-])CC1
CDK13 (Homo sapiens, UniProt Q14004): 100%
PLK1 (Homo sapiens, UniProt P53350): 83%
DYRK1B (Homo sapiens, UniProt Q9Y463): 71%
MAP3K6 (Homo sapiens, UniProt O95382): 93%
CSNK2A2 (Homo sapiens, UniProt P19784): 100%

Series 3 — read-out: enzyme activity; concentration: 5 µM; quantity: remaining activity
SMILES: O=C(Nc1cnn(-c2csc(C(=O)NC3COC3)c2)c1)Nc1ccccc1Cl
Cell division cycle 7-related protein kinase, with DBF4 (CDC7, Homo sapiens, UniProt O00311); baseline: untreated control: 109%
CDC42BPB (Homo sapiens, UniProt Q9Y5S2); baseline: untreated control: 95.7%
CHUK (Homo sapiens, UniProt O15111); baseline: untreated control: 144% and 167%
FGFR2 (Homo sapiens, UniProt P21802); baseline: untreated control: 94.7%
MAP3K6 (Homo sapiens, UniProt O95382); inhibitor: 98.8%
STK17A (Homo sapiens, UniProt Q9UEE5); baseline: untreated control: 98.3%
Myosin-IIIa (MYO3A, Homo sapiens, UniProt Q8NEV4); baseline: untreated control: 91.5%

Series 4 — mode: inhibitor; concentration: 5 µM; quantity: log2 fold change
SMILES: O=C1NC(=O)C(c2cn(-c3ccccc3)nc2-c2ccc(F)cc2)N1 (centres unmarked)
FLT4 (Homo sapiens, UniProt P35916, H1035R); cell-based translocation; human cells; hereditary lymphedema type 1A variant; baseline: vehicle: -0.29
Ephrin type-B receptor 1, with CDC37 (EPHB1, Homo sapiens, UniProt P54762); cell-based kinome screen; human cells; baseline: vehicle: -0.016
PRKAA1 (Homo sapiens, UniProt Q13131); kinase–CDC37 interaction; kinome plate 1@E05; baseline: vehicle: -0.25
CLK3 (Homo sapiens, UniProt P49761); human cells; baseline: vehicle: -0.707
NEK9 (Homo sapiens, UniProt Q8TD19); kinase-CDC37 interaction; human cells; baseline: vehicle: -0.1
Tyrosine-protein kinase STYK1 (STYK1, Homo sapiens, UniProt Q6J9G0); kinase-CDC37 interaction; human cells; baseline: vehicle: -0.351
BRAF (Homo sapiens, UniProt P15056); kinase-CDC37 interaction; human cells; baseline: vehicle: -0.091
BMPR2 (Homo sapiens, UniProt Q13873, C483R); cell-based kinome profiling; human cells; baseline: vehicle control: -0.08

Repeated from above (series 4):
FLT4 (Homo sapiens, UniProt P35916, H1035R); cell-based translocation; human cells; hereditary lymphedema type 1A variant; baseline: vehicle: -0.29
NEK9 (Homo sapiens, UniProt Q8TD19); kinase-CDC37 interaction; human cells; baseline: vehicle: -0.1
PRKAA1 (Homo sapiens, UniProt Q13131); kinase–CDC37 interaction; kinome plate 1@E05; baseline: vehicle: -0.25
Ephrin type-B receptor 1, with CDC37 (EPHB1, Homo sapiens, UniProt P54762); cell-based kinome screen; human cells; baseline: vehicle: -0.016
